Measurements pooled from the literature.
Compare with care: the assays were run in different laboratories. “And” joins repeats or separate records; there may be more than shown. ± marks the error that the study gave.

Compound	tested on	test	system	setting	scale	endpoint	result
CC(C)n1cnc2c(NCc3ccccc3O)nc(NCCCO)nc21	HeLa	splicing reporter, refers to: GLA		10 µM, 18 h		GFP/RFP ratio	0.15
COc1cc2ncnc(Nc3ccc(Oc4ccccc4)cc3C)c2cc1OC	MeWo (NF1)	resazurin		0.3 µM, 72 h, together with: trametinib 0 nM		viability	99.3%
COc1ccc(NC(=S)N/N=C/c2cccc3cc4ccccc4nc23)cc1	HeLa	annexin V/PI flow cytometry		concentration not given, 48 h, together with: N-acetylcysteine		late apoptotic cells	6.12 ± 0.72%
CCCN1CCN(c2ccc3[nH]c(-c4ccc5[nH]c(-c6ccc(C(F)(F)F)cc6)nc5c4)nc3c2)CC1	TK-10	SRB		10 µM, 48 h		growth percent	-13%
C=CC1=C(C)c2cc3[n-]c(cc4nc(cc5[n-]c(cc1n2)c(C)c5C=C)C(C)=C4CCC(=O)O)c(CCC(=O)O)c3C.[Zn+2]	SH-SY5Y	RNA-seq, refers to: ITGA6 mRNA		5 µM, 5 h	baseline: untreated cells	fold change	1.88
CSc1cc(Oc2ccnc3[nH]c(=O)cnc23)ccc1NC(=O)Nc1cc(C(C)(C)C)nn1-c1ccccc1	patient-derived cell line	reverse phase protein array	human	1 µM, 4 h	baseline: DMSO	phosphorylated STAT5 level	0.48
COc1ccc2c(N(C)c3ccc(/C(C)=N/OCCN)cc3)c3c(Cl)coc3nc2c1	RWPE-1	trypan blue exclusion		0.5 µM		inhibition of cell proliferation	40%
Cc1ccccc1OCCn1cnc2cc([N+](=O)[O-])ccc2c1=O	LDR	silenced CMV-GFP reporter derepression, qHTS				efficacy	23%
C[C@H]1[C@H](OC(=O)CCC(=O)O)O[C@@H]2O[C@@]3(C)CC[C@H]4[C@H](C)CC[C@@H]1[C@@]24OO3	human primary cardiac fibroblasts			5 µM, together with: TGF-β1 5 ng/mL		collagen gel contraction	decreased
CN(C)S(=O)(=O)c1cccc(NC(=S)N/N=C/c2ccco2)c1	LDR	silenced CMV-GFP reporter derepression, qHTS				efficacy	121%
O=C(/C=C/C=C/C=C/C1CCCCC1)NC1=C[C@@](O)(/C=C/C=C/C=C/C(=O)NC2=C(O)CCC2=O)[C@@H]2O[C@@H]2C1=O	HEC-251	cell growth, CellTiter-Glo		78 h		GI50	21.8 µM
CCn1cc(-c2cc(Cn3ccoc3=N)cc3c2CCN([C@@H](C)c2cc(OC)ccn2)C3=O)c(C(F)(F)F)n1	HEC-251	cell growth, inhibitor		120 h		EC50	> 30 µM
CC/C(=N\NC(=O)C(C)Nc1ccccc1)c1ccc(O)c(C)c1O (stereo not drawn)	SK-OV-3	Western blot		10 µM, 1 h, 2D culture, unit not given	baseline: DMSO	LATS band intensity	0.26 ± 0.34
CCCCN1C[C@H](O)[C@@H](O)[C@@H](O)[C@H]1CO	sample B patient fibroblasts	GlcCer level lowering, LC-MS/MS, refers to: GlcCer d18:1/24:1		216 h		IC50	28.8 µM
Cc1nc(N(Cc2ccccc2)c2ccc3c(c2)/C(=C/c2ccccc2)C(=O)N3Cc2ccccc2)c2ccccc2n1 (mixture of isomers)	LLC	mitochondrial membrane potential, JC-1 flow cytometry		2 µM		depolarized cells	17.6%
COc1ccc(-n2nc(C(C)=O)s/c2=N\N=C(/C)c2ccc(NC(=O)c3ccc(C)cc3)cc2)cc1	MCF7			0.625 µM		viability	8.19%
CCCCCCCCCCCCCCC/C(NCc1ccccc1)=C1/C(=O)OC(CO)C1=O (stereo not drawn)	G2-synchronized tsFT210 cells	flow cytometry		50 µM, 4 h, 32 °C, release from G2 arrest		G2/M phase cells	60.3%
CC(=O)Nc1cccc(-n2c(=O)n(C3CC3)c(=O)c3c(Nc4ccc(I)cc4F)n(C)c(=O)c(C)c32)c1	MeWo (NF1)	cell viability, resazurin		100.00 nM, 72 h	baseline: DMSO	fractional effect	0.5 and 0.447
Cn1cc(-c2ccc(-c3cncc(Cl)c3N3CCC4(CCNC4=O)CC3)cc2)cn1	COLO 205	gene expression, microarray, refers to: CORO1A mRNA		concentration not given, 6 h	baseline: untreated cells	log2 fold change	-3.54
CCCCC1(CCCC)CN(c2ccccc2)c2cc(SC)c(OCC(=O)N[C@@H](C(=O)NCC(=O)O)c3ccccc3)cc2S(=O)(=O)C1	differentiated Caco-2	qPCR		1 µM, compound pre-incubation, together with: 0.6 mM post-operative bile acid pools		FGF19 mRNA level	decreased
CC(C)C[C@@H](C=O)NC(=O)[C@H](CC(C)C)NC(=O)[C@H](CC(C)C)NC(=O)OCc1ccccc1	LDR	silenced CMV-GFP reporter derepression, qHTS				Emax	171%
CCCCCCCCCCCCCCCC(NCc1ccccc1O)=C1C(=O)OC(CO)C1=O (stereo not drawn)	G2-synchronized tsFT210 cells	flow cytometry		5 µM, 4 h, 32 °C, release from G2 arrest		G2/M phase cells	29.1%
CC(C)C(=O)N1CCN(c2ccc(NC(=O)c3ccc([N+](=O)[O-])o3)cc2Cl)CC1	LDR	silenced CMV-GFP reporter derepression, qHTS				efficacy	45%
NS(=O)(=O)OC[C@H]1C[C@@H](Nc2ccnc3cc(-c4cccc(SC(F)(F)F)c4)nn23)[C@H](O)[C@@H]1O	HiBiT-BRD4 LgBiT cells			0.1 µM, 24 h, no PROTAC		decrease in BRD4 level	50%

Compound	tested on	test	system	setting	scale	endpoint	result
COc1cnc2cccc(N3CCc4c(cc(Cn5ccnc5C)cc4-c4cn(C)nc4C(F)(F)F)C3=O)c2c1	HEC-251	cell growth, inhibitor		120 h		EC50	> 30 µM
CCNc1nc(Nc2ccc(F)c(Cl)c2)c2ccccc2n1	Vero	MTT		250 µg/mL		cytotoxicity	79.4%
CCn1cc(-c2cc(Cn3ccnc3)cc3c2CCN([C@H](c2cc(OC)ccn2)C2CC2)C3=O)c(C(F)(F)F)n1	NCI-H1838	cell growth, inhibitor		120 h		EC50	> 30 µM
Nc1cccc2c1C(=O)N(C1CCC(=O)NC1=O)C2=O (stereo not drawn)	MM1.S	XTT		0.4 µM	baseline: untreated	viability	49%
O=c1[nH]nc(OCCCc2ccc(Cl)cc2)c(NCc2cccnc2)c1Br	HEK-293T	RNA-seq GSEA, refers to: HALLMARK_MYOGENESIS		concentration not given	direction not given	normalized enrichment score	-0.951
COc1cc(/C=C/C(=O)N2CCC=CC2=O)cc(OC)c1OC	MDA-MB-468	qRT-PCR, refers to: PARK7		30 µM, 6 h	baseline: time zero	mRNA level	83.9 ± 5.4%
O=c1cc(C(Cl)(Cl)Cl)oc2ccc(Cl)cc12	Neuro2a	inhibitor, RT-qPCR		concentration not given, together with: BRP 100 µg/mL		Fos mRNA level	inhibited
CC(=O)N[C@@H](CSC(=O)[C@]1([C@@H](O)C(C)C)NC(=O)[C@H](C)[C@@H]1O)C(=O)O	LDR	silenced CMV-GFP reporter derepression, qHTS				efficacy	52%
CC(C)NCC(O)c1ccc(O)c(O)c1 (stereo not drawn)	mouse ventricular cardiomyocytes			dose not given, 0.087 s		sarcomere length	1.76 µm
CC(C)C[C@H](NC(=O)C[C@H](O)[C@H](CC(C)C)NC(=O)[C@H](Cc1c[nH]cn1)NC(=O)CNC(=O)[C@@H](NC(=O)[C@H](C)NC(=O)[C@H](Cc1c[nH]c2ccccc12)NC(=O)[C@H](CCC(N)=O)NC(=O)[C@@H](Cc1ccccc1)NC(=O)COCCOCCNC(=O)CCC(C(=O)O)N1CCN(CC(=O)O)CCN(CC(=O)O)CCN(CC(=O)O)CC1)C(C)C)C(N)=O (stereo partly drawn) [lutetium-177 labelled]			female BALB/c nu/nu mice, kidneys	intravenous, 100 pmol, 24 h, together with: PA 300 µg		tissue uptake	1.3 ± 0.3 %ID/g
CC(C)C[C@@H](/C=C/S(C)(=O)=O)NC(=O)[C@H](CC(C)C)NC(=O)[C@H](CC(C)C)NC(=O)OCc1ccccc1	LDR	silenced CMV-GFP reporter derepression, qHTS				efficacy	107%
C=Cc1c2[n-]c(c1C)/C=c1\[n-]/c(c(C)c1C=C)=C\c1[n-]c(c(CCC(=O)O)c1C)/C=c1\[n-]c(c(C)c1CCC(=O)O)=C2.[Sn+4]	SH-SY5Y	RNA-seq, refers to: SGK1 mRNA		5 µM, 5 h	baseline: untreated cells	fold change	1.67
O=C(O)[C@@H](O)[C@H](O)[C@H](O)[C@@H](O)C(=O)O		binding, MIDAS equilibrium dialysis LC-MS	A2AR-BRIL thermostabilized	concentration not given	baseline: no-protein control	log2 fold change	-0.17
CCCS(=O)(=O)Nc1ccc(F)c(C(=O)c2c[nH]c3ncc(-c4ccc(Cl)cc4)cc23)c1F	SK-MEL-239 C4 (p61 BRAF V600E)	ERK phosphorylation, Western blot		1 h		IC75	13.5 µM
CC[C@H](C)[C@H](NC(=O)[C@H](CCCCN)NC(=O)[C@@H](NC(=O)[C@H](CCCNC(=N)N)NC(=O)[C@@H](NC(=O)[C@@H](CCCNC(=N)N)NC(=O)[C@@H](CCCNC(=N)N)NC(=O)[C@@H](CCCNC(=N)N)NC(=O)[C@@H](CCCNC(=N)N)NC(=O)[C@@H](CCCNC(=N)N)NC(=O)[C@H](N)CCCNC(=N)N)[C@@H](C)O)[C@@H](C)O)C(=O)N[C@@H](CC(=O)O)C(=O)N[C@@H](Cc1c[nH]c2ccccc12)C(=O)NC(C)(C)C(=O)N[C@@H](CCCCN)C(=O)N[C@H](C(=O)N[C@@H](CC(C)C)C(=O)NC(C)(C)C(=O)N[C@@H](CCCCN)C(=O)NCCCCCC(=O)NCCCC[C@H](NC(=O)CCCCCNC(=O)[C@H](CCCCN)NC(=O)C(C)(C)NC(=O)[C@H](CC(C)C)NC(=O)[C@@H](NC(=O)[C@H](CCCCN)NC(=O)C(C)(C)NC(=O)[C@H](Cc1c[nH]c2ccccc12)NC(=O)[C@H](CC(=O)O)NC(=O)[C@@H](NC(=O)[C@H](CCCCN)NC(=O)[C@@H](NC(=O)[C@H](CCCNC(=N)N)NC(=O)[C@@H](NC(=O)[C@@H](CCCNC(=N)N)NC(=O)[C@@H](CCCNC(=N)N)NC(=O)[C@@H](CCCNC(=N)N)NC(=O)[C@@H](CCCNC(=N)N)NC(=O)[C@@H](CCCNC(=N)N)NC(=O)[C@H](N)CCCNC(=N)N)[C@@H](C)O)[C@@H](C)O)[C@@H](C)CC)[C@@H](C)CC)C(N)=O)[C@@H](C)CC	SK-MEL-5	microscopy		concentration not given		time to apoptosis signs (blebbing)	≤ 2 h
O=P1(C2CCCCC2)CCCCC1	SW480	Annexin V-FITC/PI flow cytometry		IC50, 72 h		late apoptotic cells	6.05%
Cn1cc(Nc2nccc(-c3ccc4c(c3)CN(C3COC3)CC[C@H]4NC(=O)c3cn(C(C)(C)C)nn3)n2)cn1	human B cells			100 nM, 64 h, stimulation-upregulated genes, together with: anti-IgM		number of downregulated genes	53
CCCCS(=N)(=O)CCC(N)C(=O)O (stereo not drawn)	OVCAR-5	LC-ESI-MS/MS, refers to: glutathione		100 µM, 12 h	baseline: untreated	remaining GSH	0.9%
CCc1ccc(NC(=O)Nc2c[nH]c3ccccc23)cc1	RAW-ISG	RT-qPCR, refers to: IFNB1		10 µM, unit not given, together with: HT-DNA	baseline: relative	mRNA level	0.0305
COc1cccc2c1C(=O)c1c(O)c3c(c(O)c1C2=O)C[C@@](O)(C(=O)CO)C[C@@H]3O[C@H]1C[C@H](N)[C@H](O)[C@H](C)O1	SW480	MTT		72 h	baseline: IC50 HaCaT over IC50 SW480	selectivity index	0.4
Cn1cnc2c1c(=O)n(CC(=O)Nc1c(Cl)cccc1Cl)c(=O)n2C	Vero	MTT		125 µg/mL		cytotoxicity	6.15%
CN(C)c1ccccc1/C=C1\SC(N2CCCCC2)=NC1=O	NG108-cl	clomeleon fluorescence, refers to: intracellular chloride reduction		5 h		EC50	inactive
Cc1cc(Nc2ncc(Cl)c(Nc3ccccc3S(=O)(=O)C(C)C)n2)c(OC(C)C)cc1C1CCNCC1	CLB-GE	phosphoproteomics LC-MS/MS, refers to: PPP1R12A phosphorylation		200 nM, 60 min	baseline: untreated	log2 fold change	-1.98
CC/C(=N\NC(=O)NCc1cccc(O)c1)c1ccc(O)c(C)c1O	SK-OV-3	gene expression, microarray, refers to: ANKRD1		10 µM, 24 h	baseline: DMSO	log ratio	5.59
